Experimental data pooled from the literature.
Parts stem from different laboratories: compare values within a part only. Positions count from the first letter of the parent shown.

Set 1 — technique: DHFR PCA, deep sequencing; sample: yeast; together with: (+)-ABA 58 µM; reference: wild-type fitted maximum; reading: higher = stronger binding
Target: ABI1, truncated, D143A, DHFR fusion (Arabidopsis thaliana)
Setting: methotrexate growth selection, single substitutions
Parent: PYL1, truncated, DHFR fusion (Arabidopsis thaliana); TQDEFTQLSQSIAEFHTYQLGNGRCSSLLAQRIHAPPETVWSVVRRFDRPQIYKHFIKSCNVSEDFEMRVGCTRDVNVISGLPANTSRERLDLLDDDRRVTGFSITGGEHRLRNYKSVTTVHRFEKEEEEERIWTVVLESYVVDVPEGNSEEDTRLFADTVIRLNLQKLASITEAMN; partner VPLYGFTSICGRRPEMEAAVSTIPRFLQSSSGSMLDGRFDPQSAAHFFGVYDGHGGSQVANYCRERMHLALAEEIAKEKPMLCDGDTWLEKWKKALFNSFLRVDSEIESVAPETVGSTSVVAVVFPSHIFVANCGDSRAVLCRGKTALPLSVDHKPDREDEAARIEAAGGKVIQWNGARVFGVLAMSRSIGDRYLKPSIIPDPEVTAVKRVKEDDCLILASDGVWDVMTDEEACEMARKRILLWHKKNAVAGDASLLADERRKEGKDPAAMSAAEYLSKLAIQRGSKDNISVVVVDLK
`S26V` — result for “relative binding score”: 64.1%.
For `P50Y`, “relative binding score” read -3.79%.
`R90K`: “relative binding score” 80.6%.
For `T160P`, “relative binding score” read -0.138%.
Under “relative binding score”, `H34S` is recorded as 87.2%.
`Q51G`: “relative binding score” 57.6%.
Under “relative binding score”, `P83K` is recorded as -5.2%.
`F15Q` — result for “relative binding score”: 42.2%.

Set 2 — target: CCNA2, cyclin fold, Cln2 fusion (human); technique: yeast growth competition, sequencing; sample: yeast; setting: weak parent motif; reference: not given; reading: higher = stronger binding
Parent: SLBP docking peptide (human); ARYKRKLLINDFG
Under “normalised enrichment score”, `ARYKRKLLINDFL [G13L]` is recorded as 0.842.
`AGYKRKLLINDFG [R2G]`: “normalised enrichment score” 1.61.
For `NRYKRKLLINDFG [A1N]`, “normalised enrichment score” read 1.62.
`ARYKRKLKINDFG [L8K]`: “normalised enrichment score” 0.196.
For `KRYKRKLLINDFG [A1K]`, “normalised enrichment score” read 0.00767.
Under “normalised enrichment score”, `ARYKRKLLINFFG [D11F]` is recorded as 2.12.
`ARYKYKLLINDFG [R5Y]` — result for “normalised enrichment score”: 0.0237.

Set 3 — technique: protein binding microarray; form: double-stranded DNA, one strand shown; sample: in vitro; concentration: not given; reference: not given; reading: higher = stronger binding
Target: Histone acetyltransferase KAT6A, both winged helices, GST fusion (KAT6A, Homo sapiens, UniProt Q92794, residues 1-181)
Setting: 8-mer, flanks averaged, mean of 2 arrays, mostly near background
Target sequence (chain): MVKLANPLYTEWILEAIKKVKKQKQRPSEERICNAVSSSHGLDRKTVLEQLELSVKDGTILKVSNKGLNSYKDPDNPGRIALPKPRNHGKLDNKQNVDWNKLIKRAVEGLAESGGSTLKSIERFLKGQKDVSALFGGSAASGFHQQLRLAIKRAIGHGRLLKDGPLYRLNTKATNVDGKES
For `ACTCACTA`, the E-score was -0.184.
For `GCGTCGCA`, the E-score was 0.306.
The E-score of `ACGCGGAA` is reported as 0.273.
The E-score of `AATCTATG` is reported as -0.0996.
For `ACAGGCGA`, the E-score was -0.062.
`CGAAATCC` gave an E-score of -0.0246.
`AAGTTACC` has an E-score of 0.0334.
With `ATCTTAAC` the E-score was 0.019.
The E-score of `CACACTAC` is reported as -0.0235.

Single results of other studies
With `PhoQ, residues 284 288 289 292 302 303 GTAMQF` the fold induction was 1.1 (PhoP, residues 12 14 15 18 19 STWGI (Escherichia coli, UniProt P23836); Sort-seq, measured: YFP reporter; E. coli; PhoQ-PhoP variant library, together with: 10 µM Mg2+; reference: high Mg2+ state, higher = stronger signaling).

A few entries again (set 1):
`F15Q` — result for “relative binding score”: 42.2%.
Under “relative binding score”, `P83K` is recorded as -5.2%.
Under “relative binding score”, `H34S` is recorded as 87.2%.
`S26V` — result for “relative binding score”: 64.1%.
